Results pooled from the literature.
A part holds a random share of what one study measured.

Sample 1
Target: Fragile X messenger ribonucleoprotein 1, C-terminal low-complexity region (Fmr1, Mus musculus, UniProt P35922)
Technique: RNA Bind-n-Seq
Molecule type: RNA
Sample: in vitro
Concentration: 200 nM
Setting: whole 134-nt RNA, ends assumed
Together with: 150 mM KCl
Relative to: input library
Reading: higher = stronger binding
All sequences stand within: GGGAGUUCUACAGUCCGACGAUC … UGGAAUUCUCGGGUGUCAAGG
| Strand | log2 enrichment |
| --- | --- |
| UGGGAGGUGGAUUUUGUUUAUUUUUUUAGCUCAUUUCCGGGGGUGGGAAUUUUUUUUUAAUAUGUGUCAUGAAUAAAGUUGUUUUUGAAA | 0.401 |
| UCAAGUCCUGUGCUACACAUCGUAUGUACCGAAUCGGAAAGGGAAAGGGAAAGGAAAGUAUUAUGUUACGCCGUUCGGAUCUGCACUUCC | -0.357 |
| CUCAAGUCCUGUGCUACACAUCGUAUGUACCGAAUCGGUUUGGAAAGGUUUGGAAAGUAUUAUGUUACGCCGUUCGGAUCUGCACUUCCA | -0.483 |
| GUCCUGUGCUACACAUCGUAUGUACCGAAUCGGAAAAAGGGGAAAAAGGGAAAAAGGGAAAGUAUUAUGUUACGCCGUUCGGAUCUGCAC | -0.373 |
| UCCUGUGCUACACAUCGUAUGUACCGAAUCGGUUUUUUGGGGUUUUUUGGUUUUUUGGGGAAAGUAUUAUGUUACGCCGUUCGGAUCUGC | -0.197 |
| UCAAGUCCUGUGCUACACAUCGUAUGUACCGAAUCGGAAAAAGGAGGUUUUUGGAAAGUAUUAUGUUACGCCGUUCGGAUCUGCACUUCC | -0.412 |
| ACCAUGCAGAUGGGCAUCUUUGGGAAGUGGGGCAAGGGGGGGAUAGGGAGGGGGGUAACACUUUGGGAACAGGUGGUCCCAGGUCGUUUC | 0.698 |
| CUCAAGUCCUGUGCUACACAUCGUAUGUACCGAAUCGGGGAAGGGAAGGAAGGGAAAGUAUUAUGUUACGCCGUUCGGAUCUGCACUUCC | 0.192 |
| CUCAAGUCCUGUGCUACACAUCGUAUGUACCGAAUCGGUGGUUUUUUUGGUGGAAAGUAUUAUGUUACGCCGUUCGGAUCUGCACUUCCA | 0.0766 |
| UAACUUUAGAGGAGGAUCUGAUGGAUAUGGCAGUGGACGUGGAUCUGGGGAUGGCUAUAAUGGGUAUGGAGGAGGACCUGGAGGUGGCAA | 0.129 |
| CCUCAAGUCCUGUGCUACACAUCGUAUGUACCGAAUCGGGCGGGCGGGCGGGGAAAGUAUUAUGUUACGCCGUUCGGAUCUGCACUUCCA | 0.852 |
| UGGCCCUGGUGGCAUGCGGGGAGGAAGAGGUGGCCUCAUGGAUCGUGGUGGUCCCAGUGGAAUGUUCAGAGGUGGCCGUGGUGGAGACAG | -0.266 |
| GCAGGAAGUAAAAACAAAUGGAAAUGCUUCGGAUAGUGGCAGGGGUGGGGGUUGCUAAGGAAAGGGGGGGAUGGGAGUGGGUAAAGAGUU | -0.0333 |
| UCCUCAAGUCCUGUGCUACACAUCGUAUGUACCGAAUCGGUGGGUGGGUGGAAAGUAUUAUGUUACGCCGUUCGGAUCUGCACUUCCAGC | 0.0996 |

Sample 2
Target: TAR DNA-binding protein 43, full length, His tag (TARDBP, Homo sapiens, UniProt Q13148, residues 1-414)
Technique: RNA Bind-n-Seq
Molecule type: RNA
Sample: in vitro
Concentration: 20 nM
Setting: 6-mer, flanks averaged, single round
Together with: 150 mM LiCl
Relative to: input library
Reading: higher = stronger binding
| Strand | 6-mer enrichment (R) |
| --- | --- |
| UCUGAA | 0.852 |
| GACGCG | 0.97 |
| UACUUA | 0.912 |
| CUAGCA | 0.827 |
| CUGCGC | 0.945 |
| CACUUC | 0.854 |
| CGAGAG | 0.968 |
| GAAACG | 0.879 |
| GGGGCA | 1.2 |
| CCUUAC | 0.957 |
| CAAAGU | 0.869 |

Sample 3
Target: RNA binding protein fox-1 homolog 2, RRM domain, GST-SBP tag (RBFOX2, Homo sapiens, UniProt O43251-10, residues 100-194)
Technique: RNA Bind-n-Seq
Molecule type: RNA
Sample: in vitro
Concentration: 365 nM
Setting: natural RNA segment, single round, ends assumed
Relative to: no-protein control
Reading: higher = stronger binding
All sequences stand within: GGGAGUUCUACAGUCCGACGAUC … UGGAAUUCUCGGGUGCCAA
Construct (chain): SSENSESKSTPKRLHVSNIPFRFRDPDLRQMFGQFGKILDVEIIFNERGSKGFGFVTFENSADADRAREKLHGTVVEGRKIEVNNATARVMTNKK
| Strand | RBNS enrichment (R) |
| --- | --- |
| AGCAGAGUGGACCAACCGUUCAAUGUUUUACAAGCAAAACAUACACUAAGCAUGGUCUGUAGCUAUUAAAAGCACACAAUCUGAAGGGCUGUAGAUGCACAGUAGUGUUU | 0.915 |
| UCACCUGAUAGUAGAAUAUUAGAAUCUUAUUUUUUAAAUGUCUUCAGGGAACUGAGCAAAUGUUUGUUGUUUUUUUUUUUCCUGAUGUUUUCUUGAAAAGCCUUUCUCUU | 1.26 |
| AUAGCCUCCUGCACAGUAGCCUCUCCUUCCUGUCACCAAAACAGUUUUAGGUCUGCUGAAGUCUGGUGUUCUUUGCUCCUUCUGCAAUCUUGAAAUUGGGGUUUGCUUUA | 0.34 |
| CUGCGCUUGAAGAUGUAUGAGUUUGCAGGGCGGCUGGUGGGCAAGUGUUUGUAUGAAUCCUCUCUAGGGGGAGCCUACAAGCAGUUGGUCCGUGCCCGGUUCACUCGGUC | 0.508 |
| CCCAGAAAGAAUACUACCUAAAUGCUGGUUCAUCAGAGAGUAACUGUGAAGAGCAUCUCAGAUAAGGGUUCUUAAAAGGGGGGAUGGGCAGAGUACAGUAGAGGAGGACU | 0.616 |
| GUACUCUACUGGCAGGAUGCAGUUUUAAAUUUUAUGCCAUCAGUUAUUUAUUCUUGUUUAUUCAAAUGACUGCAAUAACAAUGAUUCAUUCAUUAAUGUUAAGGCUAAUA | 0.349 |
| CCUGUGACAUCCCCUCGCCCUGCAUGGAGCCUGUGUGUCACAGAAUCGCCCAACACUCCUGCACAUCAGCAGCACCAGGCCCGGGAGUGCCACGAGUGUUGAACCUCAUC | 5.07 |
| UGCUGGAAAUAAGGUAUAAUUUGUAUUUUGCAGACAAUUCAGUAAAGUUACUGGCUUUCUUAGUGAUACAGUGUCUGUCGUGCGUUUUUUUUUUUUAAUUAAUGUUUUGC | 0.695 |
| CUCUGGUUAUAAUUGCCCCAGGGCCUGAUUCAGGACUGACUCUCCACCAUAAAACUGGAAGCUGCUUCCCCUGUAGUCCCCAUUUCAGUACCAGUUCUGCCAGCCACAGU | 0.509 |
| GCAGCCUCUUCUGUCCCUUUCAGUCAUUUGCUGUACUUCCCUGUGGCACGUUACCAUGGAAGCCGCUCCAGGGUGGGUCAGGGUGCAAGCUGCUGGUGAGGUUUGGAAGC | 0.224 |
| CCCACCAACUCGGAGCCCGCCUGGCUCCAGUGCCCAGCAGCAGCAUGUCAGCUGAGCCUCCUGCCCUCCCCCAGGAACAUGCACGCUCACUCUGCUUCCUUGUGGGUGGC | 17.3 |
| UCGGCCUUCGUGUAUGGUUUCACCUUCCCAUGCUGCACUCUUUCCUGAGCCAUGUGGGAGUCGUGUGAAUGACCAAGGCAGAUGCUAGCAAGUGGUGCUUCCUUCUCAGC | 0.308 |

Sample 4
Target: RING finger protein unkempt homolog, zinc fingers 1-6, SBP tag (UNK, Homo sapiens, UniProt Q9C0B0, residues 30-357)
Sequence of UniProt Q9C0B0 (30-357, looked up): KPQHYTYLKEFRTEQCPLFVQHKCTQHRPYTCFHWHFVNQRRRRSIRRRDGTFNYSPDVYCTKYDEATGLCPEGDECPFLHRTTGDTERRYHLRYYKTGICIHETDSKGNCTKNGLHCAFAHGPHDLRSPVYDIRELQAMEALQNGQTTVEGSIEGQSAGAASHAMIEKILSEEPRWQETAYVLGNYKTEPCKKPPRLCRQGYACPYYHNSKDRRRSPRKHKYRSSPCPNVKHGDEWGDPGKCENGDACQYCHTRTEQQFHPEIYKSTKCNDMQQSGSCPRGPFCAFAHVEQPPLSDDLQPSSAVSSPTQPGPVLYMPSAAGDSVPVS
Technique: RNA Bind-n-Seq
Molecule type: RNA
Sample: in vitro
Concentration: 100 nM
Setting: RNA with constant flanks, vertebrate orthologous sites, ends assumed
Relative to: input RNA pool
Reading: higher = stronger binding
All sequences stand within: GGGAGUUCUACAGUCCGACGAUC … CAACAGAGGAUUGAGCAUCA
| Strand | bound/input enrichment [ratio] |
| --- | --- |
| UAAUCACUUGUUUAAAGUUACGUAGAUAAGAAAUUAUAGCUGUUGAUCCUUGUUUUCCAAAAUGGCCUAUACUAUUUUUUUAUCCAUCUUGCAAAGAUCAGUUGUGUGUUAUUUCUUCAC | 0.443 |
| UGUCCCUGUUAAGCACUGCGUUCCAGACCGUGUCUGACUUAGUUAACCUAGGGGAUUUUAUAGUUUUACUUUAACGAAGUCCUGAUUAACACAGAACAGCGGGAGGACGGUUCCUCUCCU | 0.397 |
| AUGUAGUUUGUUUUUAAUUUCAAGCAAAAUCUUAUUGUACUUGAAUGUGCCCUGUUUUGUUAGCACACCUAGACUUGCUGUAACUGUACUCAUGUCCCAGUAUGUACGUUCUUUCUAUGA | 0.981 |
| GGAUUAGGUUCGAUUCUUUGCGUGUUAAAAAAAAAAAGCAUAAAAACAUUUUUAAAAAAAUAGAAAAAUUCAGCAAACCAUUUGUAAAGUAGAAGAGGGUUUUAGGUAGAAAAGGUAUUC | 0.889 |
| GAACUAAAGGAGUUAGCAUCUUUAUUUUUGUAUCAAAGAUAAAGGUUAUUUUGAAAUUAUUAGGAUUUUUUUAUACAACUCUGGAAUCUGUUGCUUUUGUAAACAAAUUCUUUGAUCUUA | 1.27 |
| CUAUGUAGUGGUUAACGGUGGCGUCUUCCUCUGCAUCUCCCGUGAAGAAAAAAAAACAAACAUACUCCUCACACAUCUGAUGAUGCAGUUCUGUUUUUGUUUUCUGCUUUUACAUAUACA | 0.605 |
| UCUUUUUAUUGAUCAGGUCUAUAAAUGUGUACUAAAAAAUCAGUUUAUUUAUAAACAGAAGAGUUUAUUUAAAGAGAAAGUCUUUCCUCAUCGGUAUCGUGGUAUGCAUUAAUUCCAUUU | 0.207 |
| CAGCGCCAUGGUGGAGGGCUCCGAGCUCAAAAAGGUGCGCUCCAGCUCUAGGGUUUACCCCAGGUAUUUCCUGCUGGACGCCGACAUGCAGAGCCUGAGGUGGGAACCAUCCAAGAAGGA | 0.167 |
| UAAUGUGUUUUUAUUUACUGAAGAUCGUUUUGUGCCAAGAAUUGUGUUAGAUUUAAAAAUAAGAGGAUUAGUUCCUCUUUGUUGUGUUGAUUUCAUUGUUGAAAAUAAAUAGAACUUUGU | 0.643 |
| AGCAGUUAGAGUGGGCUCUUCCUCUCCAUCUCCCAUGAGGACAAAAGCCCAAAUAGAUGCCUCACACAUCUGAUGAUACUGUUCUGUUUUUGUUUUCUGCUUUUACAUAUGCAUCGGAAU | 0.91 |
| CUGGCUGUGUUACUGUGGCAUUUGAAAUAUUCACAGUAUUCAAUUUUCCCAAAAUGAUUCUAGUAAUUGCCUAGAAAUAUCUUUCUCUUACCUGUUAUUUAUCAGUGUUCCCAGUAUUUU | 0.448 |

Sample 5
Target: Histone acetyltransferase KAT6A, winged helix 1, GST fusion (KAT6A, Homo sapiens, UniProt Q92794, residues 1-85)
Technique: protein binding microarray
Molecule type: double-stranded DNA, one strand shown
Sample: in vitro
Concentration: not given
Setting: 8-mer, flanks averaged, mean of 2 arrays, mostly near background
Relative to: not given
Reading: higher = stronger binding
Residues (chain): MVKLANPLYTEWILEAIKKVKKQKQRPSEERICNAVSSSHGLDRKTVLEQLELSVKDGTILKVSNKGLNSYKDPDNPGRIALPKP
| Strand | E-score |
| --- | --- |
| ACTGTCTC | -0.0496 |
| AGGCGCAC | 0.193 |
| CAAAGTAA | -0.161 |
| GTTGAATA | 0.00956 |
| ACGGAAGA | 0.211 |
| CATGGACC | -0.0658 |
| CGCGTATC | 0.353 |
| AAGATTGA | -0.0738 |
| CTTGTGTC | -0.188 |
| CCCCCTCC | -0.168 |
| ATAGCAGG | -0.111 |
| GCCGATGA | 0.171 |
| ACGACAAT | -0.222 |
| CAATGGTC | -0.133 |
| TAAAGGTA | -0.144 |
| ACATTCAA | -0.0552 |

Some of these lines once more (sample 1):
| Strand | log2 enrichment |
| --- | --- |
| GUCCUGUGCUACACAUCGUAUGUACCGAAUCGGAAAAAGGGGAAAAAGGGAAAAAGGGAAAGUAUUAUGUUACGCCGUUCGGAUCUGCAC | -0.373 |
| ACCAUGCAGAUGGGCAUCUUUGGGAAGUGGGGCAAGGGGGGGAUAGGGAGGGGGGUAACACUUUGGGAACAGGUGGUCCCAGGUCGUUUC | 0.698 |
| CUCAAGUCCUGUGCUACACAUCGUAUGUACCGAAUCGGUUUGGAAAGGUUUGGAAAGUAUUAUGUUACGCCGUUCGGAUCUGCACUUCCA | -0.483 |
| UCCUCAAGUCCUGUGCUACACAUCGUAUGUACCGAAUCGGUGGGUGGGUGGAAAGUAUUAUGUUACGCCGUUCGGAUCUGCACUUCCAGC | 0.0996 |
| UGGCCCUGGUGGCAUGCGGGGAGGAAGAGGUGGCCUCAUGGAUCGUGGUGGUCCCAGUGGAAUGUUCAGAGGUGGCCGUGGUGGAGACAG | -0.266 |
| CCUCAAGUCCUGUGCUACACAUCGUAUGUACCGAAUCGGGCGGGCGGGCGGGGAAAGUAUUAUGUUACGCCGUUCGGAUCUGCACUUCCA | 0.852 |
| UAACUUUAGAGGAGGAUCUGAUGGAUAUGGCAGUGGACGUGGAUCUGGGGAUGGCUAUAAUGGGUAUGGAGGAGGACCUGGAGGUGGCAA | 0.129 |
